Published values pooled from the literature.
Every numbered part comes from another study and shows a few of its results, in no order.
UniProt P68400, sequence (whole entry, looked up): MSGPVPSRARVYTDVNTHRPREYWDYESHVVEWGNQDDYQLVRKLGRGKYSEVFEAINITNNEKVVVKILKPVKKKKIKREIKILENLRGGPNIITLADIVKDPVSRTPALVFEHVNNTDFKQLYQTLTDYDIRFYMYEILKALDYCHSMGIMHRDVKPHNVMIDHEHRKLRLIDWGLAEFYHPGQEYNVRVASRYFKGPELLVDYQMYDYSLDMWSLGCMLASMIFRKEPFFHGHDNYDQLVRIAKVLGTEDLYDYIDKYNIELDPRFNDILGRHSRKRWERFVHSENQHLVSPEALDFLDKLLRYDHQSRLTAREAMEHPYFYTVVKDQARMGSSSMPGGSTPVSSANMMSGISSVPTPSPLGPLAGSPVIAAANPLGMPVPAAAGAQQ
UniProt Q08881, sequence (whole entry, looked up): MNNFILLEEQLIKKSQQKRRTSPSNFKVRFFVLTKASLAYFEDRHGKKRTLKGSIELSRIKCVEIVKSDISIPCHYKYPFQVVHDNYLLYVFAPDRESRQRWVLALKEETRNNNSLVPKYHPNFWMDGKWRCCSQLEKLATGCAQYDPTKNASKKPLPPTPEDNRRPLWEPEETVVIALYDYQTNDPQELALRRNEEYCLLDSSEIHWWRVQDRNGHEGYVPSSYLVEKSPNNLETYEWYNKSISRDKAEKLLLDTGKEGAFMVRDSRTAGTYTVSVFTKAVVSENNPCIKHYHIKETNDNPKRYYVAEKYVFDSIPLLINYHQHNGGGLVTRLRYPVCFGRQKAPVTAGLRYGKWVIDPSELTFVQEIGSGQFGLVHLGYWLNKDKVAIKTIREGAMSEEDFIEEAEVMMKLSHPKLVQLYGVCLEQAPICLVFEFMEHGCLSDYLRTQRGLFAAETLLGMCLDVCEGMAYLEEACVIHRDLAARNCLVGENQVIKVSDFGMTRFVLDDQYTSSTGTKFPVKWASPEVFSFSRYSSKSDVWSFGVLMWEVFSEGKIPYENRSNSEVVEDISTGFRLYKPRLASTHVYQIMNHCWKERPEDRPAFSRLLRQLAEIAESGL
UniProt Q5VT25, sequence (whole entry, looked up): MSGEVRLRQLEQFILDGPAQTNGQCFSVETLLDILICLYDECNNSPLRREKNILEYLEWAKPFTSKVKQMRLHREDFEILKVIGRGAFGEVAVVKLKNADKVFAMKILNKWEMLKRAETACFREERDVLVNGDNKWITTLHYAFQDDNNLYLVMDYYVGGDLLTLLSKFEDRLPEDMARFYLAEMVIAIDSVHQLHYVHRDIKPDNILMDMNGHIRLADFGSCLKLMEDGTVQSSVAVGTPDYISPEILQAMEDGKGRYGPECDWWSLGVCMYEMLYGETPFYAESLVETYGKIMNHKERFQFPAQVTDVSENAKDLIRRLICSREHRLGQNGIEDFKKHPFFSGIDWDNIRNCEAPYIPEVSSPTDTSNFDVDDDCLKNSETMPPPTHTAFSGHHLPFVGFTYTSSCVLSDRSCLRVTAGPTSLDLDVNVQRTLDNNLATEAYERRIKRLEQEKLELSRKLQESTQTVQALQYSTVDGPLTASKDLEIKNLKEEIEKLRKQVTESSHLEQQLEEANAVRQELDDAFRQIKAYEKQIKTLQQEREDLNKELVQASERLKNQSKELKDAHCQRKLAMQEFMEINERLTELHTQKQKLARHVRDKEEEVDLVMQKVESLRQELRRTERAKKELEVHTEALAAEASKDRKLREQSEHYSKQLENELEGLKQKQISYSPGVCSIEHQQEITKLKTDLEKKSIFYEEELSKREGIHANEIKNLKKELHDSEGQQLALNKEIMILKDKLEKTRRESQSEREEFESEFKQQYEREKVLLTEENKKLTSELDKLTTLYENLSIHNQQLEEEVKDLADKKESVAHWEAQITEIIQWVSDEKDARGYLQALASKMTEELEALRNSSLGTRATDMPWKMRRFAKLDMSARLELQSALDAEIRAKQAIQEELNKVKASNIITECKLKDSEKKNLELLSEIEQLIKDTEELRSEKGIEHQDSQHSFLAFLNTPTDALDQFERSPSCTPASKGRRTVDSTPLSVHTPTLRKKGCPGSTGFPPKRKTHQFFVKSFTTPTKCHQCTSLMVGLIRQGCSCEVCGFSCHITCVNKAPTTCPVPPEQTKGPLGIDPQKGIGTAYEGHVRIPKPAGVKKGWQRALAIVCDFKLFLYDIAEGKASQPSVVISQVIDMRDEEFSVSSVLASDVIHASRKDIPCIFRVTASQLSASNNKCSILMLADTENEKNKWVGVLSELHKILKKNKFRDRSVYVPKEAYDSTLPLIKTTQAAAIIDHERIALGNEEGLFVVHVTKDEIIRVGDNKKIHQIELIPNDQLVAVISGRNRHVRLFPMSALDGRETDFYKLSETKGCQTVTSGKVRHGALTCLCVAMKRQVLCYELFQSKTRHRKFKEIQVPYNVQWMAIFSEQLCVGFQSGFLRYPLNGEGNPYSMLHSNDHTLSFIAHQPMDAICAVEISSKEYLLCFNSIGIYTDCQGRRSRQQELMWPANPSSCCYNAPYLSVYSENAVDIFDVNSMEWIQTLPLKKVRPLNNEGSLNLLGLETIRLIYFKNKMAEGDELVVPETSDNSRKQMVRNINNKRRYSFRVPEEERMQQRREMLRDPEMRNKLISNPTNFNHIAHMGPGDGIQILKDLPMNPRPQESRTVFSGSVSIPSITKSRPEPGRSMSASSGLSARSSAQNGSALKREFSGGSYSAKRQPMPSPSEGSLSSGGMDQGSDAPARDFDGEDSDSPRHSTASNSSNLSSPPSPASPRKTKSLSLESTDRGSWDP
UniProt O15146, sequence (whole entry, looked up): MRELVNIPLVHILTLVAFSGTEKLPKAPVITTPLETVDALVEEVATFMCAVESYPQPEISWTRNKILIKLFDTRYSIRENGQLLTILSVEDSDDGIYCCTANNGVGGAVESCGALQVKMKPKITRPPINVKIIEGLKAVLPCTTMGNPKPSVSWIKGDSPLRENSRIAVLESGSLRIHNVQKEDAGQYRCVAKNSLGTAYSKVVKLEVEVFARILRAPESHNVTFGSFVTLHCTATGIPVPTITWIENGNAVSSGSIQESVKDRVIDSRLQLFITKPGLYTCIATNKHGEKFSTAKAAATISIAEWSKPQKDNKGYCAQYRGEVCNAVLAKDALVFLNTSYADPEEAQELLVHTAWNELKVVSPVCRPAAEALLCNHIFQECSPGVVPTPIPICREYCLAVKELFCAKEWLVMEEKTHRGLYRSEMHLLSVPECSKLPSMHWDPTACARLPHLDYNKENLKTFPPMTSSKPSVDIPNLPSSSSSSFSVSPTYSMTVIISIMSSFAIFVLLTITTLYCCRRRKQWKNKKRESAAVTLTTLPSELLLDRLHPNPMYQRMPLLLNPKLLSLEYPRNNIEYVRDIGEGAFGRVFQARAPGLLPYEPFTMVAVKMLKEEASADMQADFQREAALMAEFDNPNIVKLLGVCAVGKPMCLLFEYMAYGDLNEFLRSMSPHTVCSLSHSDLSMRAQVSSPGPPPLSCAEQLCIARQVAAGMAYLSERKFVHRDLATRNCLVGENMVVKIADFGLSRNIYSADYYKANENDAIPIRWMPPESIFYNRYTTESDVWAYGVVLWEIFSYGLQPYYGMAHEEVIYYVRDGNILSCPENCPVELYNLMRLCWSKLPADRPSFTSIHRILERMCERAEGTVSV
UniProt Q9HAZ1, sequence (whole entry, looked up): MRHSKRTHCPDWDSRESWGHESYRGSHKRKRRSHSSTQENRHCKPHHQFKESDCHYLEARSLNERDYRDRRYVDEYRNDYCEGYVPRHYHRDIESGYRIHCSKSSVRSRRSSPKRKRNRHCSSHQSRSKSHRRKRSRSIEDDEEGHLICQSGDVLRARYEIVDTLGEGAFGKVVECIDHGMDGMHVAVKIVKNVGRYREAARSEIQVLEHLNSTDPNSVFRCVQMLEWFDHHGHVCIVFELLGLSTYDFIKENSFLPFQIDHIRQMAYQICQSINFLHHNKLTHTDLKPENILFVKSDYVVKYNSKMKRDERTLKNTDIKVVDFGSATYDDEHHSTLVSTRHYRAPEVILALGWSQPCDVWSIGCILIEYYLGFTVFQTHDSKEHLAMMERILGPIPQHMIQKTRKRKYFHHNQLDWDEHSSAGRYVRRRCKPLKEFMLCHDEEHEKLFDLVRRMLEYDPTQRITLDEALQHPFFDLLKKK

Sample 1
Target: Centromere-binding protein 1, full length, N-terminal tag (CBF1, Saccharomyces cerevisiae, UniProt P17106, residues 1-351)
UniProt P17106, sequence (whole entry, looked up): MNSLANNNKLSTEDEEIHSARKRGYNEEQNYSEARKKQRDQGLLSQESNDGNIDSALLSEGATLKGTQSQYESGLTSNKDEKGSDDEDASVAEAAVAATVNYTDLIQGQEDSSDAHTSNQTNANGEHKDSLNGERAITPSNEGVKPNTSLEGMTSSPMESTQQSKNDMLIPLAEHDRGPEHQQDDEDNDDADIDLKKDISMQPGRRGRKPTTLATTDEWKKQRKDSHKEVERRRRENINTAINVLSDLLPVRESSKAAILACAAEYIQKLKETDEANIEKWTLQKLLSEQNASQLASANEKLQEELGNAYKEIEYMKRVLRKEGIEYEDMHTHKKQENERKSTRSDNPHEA
Method: protein-binding microarray
Molecule type: double-stranded DNA, one strand shown
Matrix: in vitro
Tested at: 0.8 µM
Setting: whole 60-bp probe, no competitor
Reading: higher = stronger binding
Constant ends, left off below: … GTCTTGATTCGCTTGACGCTGCTG
Strand | fluorescence intensity [a.u.]
CCTAACTACTATATTGTCGTGATATAGCTTCGTACA | 563
GAAAATAGACGTAGCCACATGCAGCCTTTAATATAG | 552
GAATTCTATGTGTATCACCTGTTATACGTGTTGTAG | 789
CTAAGTTTACATGAAGATGTGACCAATGAGGAGTTC | 588
CCTAACTACTATAATACCACCAGATAGCTTCGTACA | 519
CTATGAAATTTGTTTCTCGTGACATTAATGATCTTC | 1770
CTATTAGGTTTGTGTCACGTGATACGTCCTTTTTTC | 44000
GAAGTTTGAACTCACGTGTTGCTGCTGAATTAGTAG | 4810

Sample 2
Structure (SMILES): O=C(N[C@H]1CCCCC/C=C\C2C[C@@]2(C(=O)O)NC(=O)[C@@H]2C[C@@H](Oc3ccncc3)CN2C1=O)OC1CCCC1 (stereo partly shown)
Method: competition with immobilised ligand
Tested at: 1 µM
target | effect on | remaining binding [%]
Serine/threonine-protein kinase PAK 4 (PAK4, Homo sapiens, UniProt O96013) | binding | 99
Ephrin type-B receptor 3 (EPHB3, Homo sapiens, UniProt P54753) | cell-free assay | 100
Serine/threonine-protein kinase TBK1 (TBK1, Homo sapiens, UniProt Q9UHD2) | binding | 100
Serine/threonine-protein kinase MRCK alpha (CDC42BPA, Homo sapiens, UniProt Q5VT25) | cell-free assay | 87
Muscle, skeletal receptor tyrosine-protein kinase (MUSK, Homo sapiens, UniProt O15146) | binding | 100
Dual specificity mitogen-activated protein kinase kinase 1 (MAP2K1, Homo sapiens, UniProt Q02750) | binding | 92
Tyrosine-protein kinase ITK/TSK (ITK, Homo sapiens, UniProt Q08881) | binding | 100
Cyclin-dependent kinase-like 3 (CDKL3, Homo sapiens, UniProt Q8IVW4) | binding | 99
Serine/threonine-protein kinase 38-like (STK38L, Homo sapiens, UniProt Q9Y2H1) | binding | 80
Epidermal growth factor receptor (EGFR, Homo sapiens, UniProt P00533, G719C) | cell-free assay | 59
1-phosphatidylinositol 3-phosphate 5-kinase (PIKFYVE, Homo sapiens, UniProt Q9Y2I7) | binding | 100
Dual specificity protein kinase CLK4 (CLK4, Homo sapiens, UniProt Q9HAZ1) | binding | 93
Casein kinase II subunit alpha (CSNK2A1, Homo sapiens, UniProt P68400) | cell-free assay | 83

Sample 3
Target: Ribosomal protein S6 kinase beta-1 (RPS6KB1, Homo sapiens, UniProt P23443)
UniProt P23443, sequence (whole entry, looked up): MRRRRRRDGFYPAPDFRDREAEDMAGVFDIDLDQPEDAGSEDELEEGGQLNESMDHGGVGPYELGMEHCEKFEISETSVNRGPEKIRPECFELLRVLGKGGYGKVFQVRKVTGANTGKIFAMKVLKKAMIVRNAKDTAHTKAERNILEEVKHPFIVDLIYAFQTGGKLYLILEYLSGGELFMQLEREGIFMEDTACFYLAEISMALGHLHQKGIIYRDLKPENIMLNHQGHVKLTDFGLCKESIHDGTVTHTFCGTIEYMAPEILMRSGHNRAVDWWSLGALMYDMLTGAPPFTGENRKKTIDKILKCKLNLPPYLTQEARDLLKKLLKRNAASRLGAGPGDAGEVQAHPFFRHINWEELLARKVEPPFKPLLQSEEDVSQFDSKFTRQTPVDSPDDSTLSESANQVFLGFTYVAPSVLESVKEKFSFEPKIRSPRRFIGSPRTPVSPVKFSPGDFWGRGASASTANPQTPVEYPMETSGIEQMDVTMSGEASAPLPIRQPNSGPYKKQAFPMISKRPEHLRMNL
Effect on: enzyme activity
Mode: inhibitor
Tested at: 0.5 µM
Baseline: control
Compound | remaining activity [%]
Cc1ccc(NC(=O)c2ccc(CN3CCN(C)CC3)cc2)cc1Nc1nc(-c2cccnc2)cs1 | 104
O=C1NC(=O)C(c2cn(CCCO)c3ncccc23)=C1c1cnccn1 | 90.2
Cc1cccc(-c2[nH]c(C(C)(C)C)nc2-c2ccc3c(c2)OCO3)n1 | 95.9
CN(C)c1ccc(C=C2C(=O)Nc3ccccc32)cc1 | 97.1
Cc1nc(-c2ccccc2)c(-c2ccncc2)o1 | 92.8
COc1ccc(CNC(=O)Nc2ncc([N+](=O)[O-])s2)cc1 | 85.4
Cn1sc(=O)n(Cc2ccccc2)c1=O | 98
O=C(Nc1cccc(Nc2cc(Nc3cccc(C(F)(F)F)c3)ncn2)c1)C1CC1 | 98
Oc1ccc(-c2nc(-c3ccncc3)c(-c3ccc(F)cc3)[nH]2)cc1 | 87.8
OCC(O)CCON=C1C(c2c(O)[nH]c3ccccc23)=Nc2ccccc21 (stereo not shown) | 47.8
O=C(CCCc1ccc(-c2ccccc2F)cc1)Nc1ccc(O)cc1 | 102
O=C1NC(=O)C(c2cn(CCCn3ccnc3)c3ccccc23)=C1Nc1ccccc1 | 42.7
Nc1ncnc2n[nH]c(Nc3ccc(F)cc3)c12 | 94.3
COc1ccc(OC)c2c(=S)c3ccccc3[nH]c12 | 99.4

Sample 4
Target: Sal-like protein 4, full length isoform B (SALL4, Homo sapiens, UniProt Q9UJQ4-2, residues 1-616)
Method: universal PBM
Molecule type: double-stranded DNA, one strand shown
Matrix: in vitro
Tested at: not given
Setting: 8-mer, flanks averaged, mean of replicates
Reading: higher = stronger binding
Strand | E-score
ATCAACTA | 0.265
CGTCACAC | -0.178
AATAGGCG | 0.127
GAGCGTGA | -0.183
ATGCGATG | -0.078
ATCGATTC | -0.0256
AACCTCCT | 0.0304
ACACTGAT | 0.0558

For quick reference, copied from above (sample 2):
target | effect on | remaining binding [%]
Muscle, skeletal receptor tyrosine-protein kinase (MUSK, Homo sapiens, UniProt O15146) | binding | 100
Dual specificity protein kinase CLK4 (CLK4, Homo sapiens, UniProt Q9HAZ1) | binding | 93
1-phosphatidylinositol 3-phosphate 5-kinase (PIKFYVE, Homo sapiens, UniProt Q9Y2I7) | binding | 100
